Results from different studies.
Lines come from different studies, so protocols differ. Numbers after ± are the reported error.
Sequence of UniProt P35232 (whole entry, looked up): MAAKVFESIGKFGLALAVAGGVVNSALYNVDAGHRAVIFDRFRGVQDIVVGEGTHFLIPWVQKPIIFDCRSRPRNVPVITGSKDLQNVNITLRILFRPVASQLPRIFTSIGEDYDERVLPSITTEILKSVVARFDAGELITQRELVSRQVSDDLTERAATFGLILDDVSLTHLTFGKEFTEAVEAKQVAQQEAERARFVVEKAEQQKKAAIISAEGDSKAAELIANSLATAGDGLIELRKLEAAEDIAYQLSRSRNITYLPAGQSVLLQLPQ

Compound | tested on | test | test system | conditions | scale | endpoint | result
NC(=O)[C@H]1CCN(c2ncnc(N)c2F)C[C@@H]1N1CCC[C@@H](Nc2cc(Cl)cc(C(F)(F)F)c2)C1=O | – | – | B-cell malignancy patients | oral, 164 mg twice daily, dose | – | grade ≥3 leukocytosis | 0%
COc1cc(Nc2ncc(F)c(Nc3ccc4c(n3)NC(=O)C(C)(C)O4)n2)cc(OC)c1OC | Prothrombin (F2, Homo sapiens, UniProt P00734) | – | – | – | – | IC50 | > 10 µM
C[C@]1(CO)Cc2ncn(-c3ccc(C#N)c(Cl)c3)c2C(=O)O1 | – | – | human, plasma | 10 mg, first dose fasted | – | Cmax | 453 nM
CC(C)C[C@@H]1NC(=O)[C@H](CC(C)C)NC(=O)[C@H](Cc2c[nH]c3ccccc23)NC(=O)[C@H](CO)NC(=O)[C@H](Cc2c[nH]c3ccccc23)NC(=O)[C@@H]2CCCN2C(=O)[C@H](CC(C)C)NC(=O)[C@H](Cc2c[nH]cn2)NC(=O)[C@@H]2CCCN2C(=O)[C@H](CC(N)=O)NC(=O)[C@H](C)NC(=O)[C@H](Cc2ccc(O)cc2)NC(=O)[C@H](CS)NC(=O)[C@H](CCCCNC(=O)CN2CCN(CC(=O)O)CCN(CC(=O)O)CCN(CC(=O)O)CC2)NC1=O [lutetium-177 labelled] | – | – | Balb/c mouse, female, 4T1 tumour, intestine | intravenous, 3.7 MBq, 24 h | – | tissue uptake | 1.71 %ID
COc1cc2c(Oc3ccc4[nH]c(C)cc4c3F)ccnc2cc1OCC1(N)CC1 | – | – | paediatric recurrent refractory sarcoma | 8 mg/kg | – | grade 1 or 2 AST elevation | 13.3%
O=S(=O)(Nc1ccccc1)c1ccc(NC(=S)Nc2ccccc2)cc1 | – | – | mouse, male, large intestine | oral, 20 mg/kg daily, 14 days | baseline: body weight | relative organ weight | 0.95%
CCCCCCCCCCCCCCCC(=O)N[C@@H](CCC(=O)NCCCC[C@H](NC(=O)[C@H](CC(=O)O)NC(=O)[C@H](CO)NC(=O)[C@@H](NC(=O)[C@H](Cc1ccccc1)NC(=O)[C@@H](NC(=O)CNC(=O)[C@H](CCC(N)=O)NC(=O)[C@H](CO)NC(=O)[C@@H](N)Cc1c[nH]cn1)[C@@H](C)O)[C@@H](C)O)C(=O)N[C@@H](CO)C(=O)N[C@@H](CCC(=O)O)C(=O)N[C@@H](Cc1ccc(O)cc1)C(=O)N[C@@H](CC(C)C)C(=O)N[C@@H](CC(=O)O)C(=O)N[C@@H](CO)C(=O)N[C@@H](CCC(=O)O)C(=O)N[C@@H](CCCNC(=N)N)C(=O)N[C@@H](C)C(=O)N[C@@H](CCCNC(=N)N)C(=O)N[C@@H](CC(=O)O)C(=O)N[C@@H](Cc1ccccc1)C(=O)N[C@H](C(=O)N[C@@H](C)C(=O)N[C@@H](Cc1c[nH]c2ccccc12)C(=O)N[C@@H](CC(C)C)C(=O)N[C@@H](CCC(=O)O)C(=O)N[C@@H](C)C(=O)NCC(=O)NCC(=O)O)C(C)C)C(=O)O | – | item: Diarrhoea | humans all renal groups | subcutaneous, 100 µg single dose | – | treatment-related adverse events | 2.7%
C[C@@H]1OC(=O)NN=C1c1ccc(-c2ccc(F)cc2)c(C(F)(F)F)c1 | – | phase I trial, item: Anaemia all grades | human patients | dose not given, all dose groups | – | patients with adverse event | 40%
CO[C@H]1C[C@@H]2CC[C@@H](C)[C@@](O)(O2)C(=O)C(=O)N2CCCC[C@H]2C(=O)O[C@H]([C@H](C)C[C@@H]2CC[C@@H](OC(=O)NCCOCCOCCOCCOCCOCCOCCOCCOCCC(=O)N3CCc4cc(Cn5nc(-c6ccc7oc(N)nc7c6)c6c(N)ncnc65)ccc4C3)[C@H](OC)C2)C[C@@H](O)[C@H](C)/C=C(\C)[C@@H](O)[C@@H](OC)C(=O)[C@H](C)C[C@H](C)/C=C/C=C/C=C/1C | – | – | patients with advanced solid tumours | intravenous, dose not given, grade ≥3 | – | incidence of Nausea TEAE | 3.5%
C[C@@H](O)[C@@H](CO)NC(=O)[C@@H](CCCNC(=N)N)NC(=O)[C@@H]1CCCN1C(=O)[C@@H]1CSSC[C@H](NC(=O)[C@H](Cc2ccccc2)NC(=O)CN2CCN(CC(=O)O)CCN(CC(=O)O)CCN(CC(=O)O)CC2)C(=O)N[C@@H](Cc2ccc(O)cc2)C(=O)N[C@@H](Cc2ccccc2)C(=O)N[C@@H](CCC(N)=O)C(=O)N[C@@H](CC(N)=O)C(=O)N1 [gallium-68 labelled] | – | – | healthy Wistar rat, heart | intravenous, 8 MBq, 30 min, individual animals | – | tissue uptake | 0.28 %ID/g
CC(C)C[C@H](NC(=O)[C@H](CCCCN)NC(=O)OCC1c2ccccc2-c2ccccc21)C(=O)N[C@H](C(=O)N[C@@H](Cc1ccccc1)C(=O)N[C@@H](Cc1ccccc1)C(=O)N[C@@H](CCCCN)C(=O)NCC(=O)N[C@@H](Cc1ccccc1)C(=O)N[C@@H](C)C(=O)N[C@@H](Cc1c[nH]c2ccccc12)C(=O)N[C@@H](CC(N)=O)C(=O)N[C@H](C(=O)N[C@H]1CSSC[C@@H](C(=O)N[C@@H](Cc2c[nH]cn2)C(=O)N[C@@H](CCCNC(=N)N)C(=O)N[C@@H](CCCNC(=N)N)C(=O)N[C@@H](C)C(=O)N[C@@H](CC(N)=O)C(N)=O)NC(=O)[C@H](C(C)C)NC(=O)[C@H](CCCNC(=N)N)NC(=O)[C@H](C(C)C)NC(=O)CNC(=O)[C@H](CC(N)=O)NC(=O)[C@H](CCCNC(=N)N)NC(=O)[C@H](Cc2ccc(O)cc2)NC(=O)[C@H](C(C)C)NC1=O)C(C)C)C(C)C | – | – | ICR mice, blood | intraductal mammary, 5 mg/kg, day 5 | – | monocytes | 2.96 ± 0.38%
O=C1Nc2cc3[nH]nc(-c4ccncc4)c3cc2CN1Cc1ccccc1 | – | item: blood ALP increased | patients with advanced solid tumours | intravenous, dose not given, schedules 1 and 2 | – | patients with grade ≥3 TEAE | 6%
CC(C)C[C@H](NC(=O)C[C@H](O)[C@H](CC(C)C)NC(=O)[C@H](Cc1c[nH]cn1)NC(=O)CNC(=O)[C@@H](NC(=O)[C@H](C)NC(=O)[C@H](Cc1c[nH]c2ccccc12)NC(=O)[C@H](CCC(N)=O)NC(=O)[C@@H](Cc1ccccc1)NC(=O)CCNC(=O)CCSc1nnc(NCCC(=O)NCCC(=O)NCCCC[C@H](NC(=O)N[C@@H](CCC(=O)O)C(=O)O)C(=O)O)c2c1CCC1C(CC2)C1COC(=O)NCCNC(=O)CC[C@H](C(=O)O)N1CCN(CC(=O)O)CCN(CC(=O)O)CC1)C(C)C)C(N)=O (stereo partly drawn) [gallium-68 labelled] | – | – | athymic NMRI nude mouse, intestine | intravenous, dose not given, 2 h, with: bombesin 480 nmol (GRPR blocking) | – | tissue uptake | 0.37 %ID/g
Cc1c(COC(=O)[C@@H]2[C@H](/C=C(\Cl)C(F)(F)F)C2(C)C)cccc1-c1ccccc1 (racemic) | – | item: CYP2C9 | human, age 6 months, recombinant human CYP2C9 | 0.1 µM | – | enzyme contribution to clearance | 24.8%
CN1CC[C@@H](c2c(O)cc(O)c3c(=O)cc(-c4ccc(C(F)(F)F)cc4Cl)oc23)[C@@H]1CO | – | item: respiratory failure | B-cell malignancies or AML | oral, 50 mg, grade 3 to 4, continuous dosing | – | patients with adverse event | 0%
CC[C@H](C)[C@H](NC(=O)[C@H](Cc1ccccc1)NC(=O)[C@H](CCC(=O)O)NC(=O)[C@H](CCCNC(=N)N)NC(=O)[C@H](C)NC(=O)[C@H](C)NC(=O)[C@H](CCC(N)=O)NC(=O)[C@H](CCC(=O)O)NC(=O)[C@H](CCC(=O)O)NC(=O)[C@H](CC(C)C)NC(=O)[C@H](Cc1ccc(O)cc1)NC(=O)[C@H](CO)NC(=O)[C@H](CO)NC(=O)[C@@H](NC(=O)[C@H](CC(=O)O)NC(=O)[C@H](CO)NC(=O)[C@@H](NC(=O)[C@H](Cc1ccccc1)NC(=O)[C@@H](NC(=O)CNC(=O)[C@H](CCC(=O)O)NC(=O)[C@H](C)NC(=O)CCc1cnc[nH]1)[C@@H](C)O)[C@@H](C)O)C(C)C)C(=O)N[C@@H](C)C(=O)N[C@@H](Cc1c[nH]c2ccccc12)C(=O)N[C@@H](CC(C)C)C(=O)N[C@H](C(=O)N[C@@H](CCCNC(=N)N)C(=O)NCC(=O)N[C@@H](CCCNC(=N)N)C(=O)N[C@@H](CCCCNC(=O)COCCOCCNC(=O)COCCOCCNC(=O)CC[C@H](NC(=O)CCCCCCCCCCCCCCCCC(=O)O)C(=O)O)C(=O)NCC(=O)NCC(=O)N[C@@H](CO)C(=O)N[C@@H](CCSC)C(=O)N[C@H](C(=O)N[C@@H](CCCCNc1c(NCCCCCN(O)C(=O)CCC(=O)NCCCCCN(O)C(=O)CCC(=O)NCCCCCN(O)C(C)=O)c(=O)c1=O)C(=O)O)C(C)C)C(C)C [zirconium-89 labelled] | – | ex vivo gamma counting | Sprague-Dawley rat, brain | intravenous, dose not given, 24 h | – | tissue uptake | 0.009 %ID/g
CC[C@H](C)[C@@H]1NC(=O)[C@@H]2CCCN2C(=O)[C@H](CC(C)C)NC(=O)[C@H](CC(C)C)NC(=O)CNC(=O)[C@@H](NC(=O)[C@@H](NC(=O)[C@H](CC(=O)O)NC(=O)CNC(=O)[C@@H](NC(=O)[C@H](C)NC(=O)CNC(=O)[C@H](CCCCN)NC(=O)[C@H](CC(C)C)NC(=O)[C@H](CC(C)C)NC(=O)[C@H](CCCCN)NC(=O)CNC(=O)[C@@H](NC(=O)[C@@H](N)CC(C)C)C(C)C)C(C)C)C(C)C)CSSC[C@@H](C(=O)O)NC1=O | – | RNA-seq, item: Rac2 | mouse, traumatic brain injury model, frontal cortex and hippocampus | dose not given | baseline: TBI alone | log2 fold change | -2.42
C[C@H]1CN(c2n[nH]c3nc(N[C@H]4CC[C@H](NS(=O)(=O)CCC(F)(F)F)CC4)ncc23)CCO1 | Prohibitin 1 (PHB1, Homo sapiens, UniProt P35232) | competitor, Kinobeads competition | human cell extract | 0.16 µM | baseline: vehicle | relative abundance | 1.02
N=C(N)NCCC[C@@H]1NC(=O)[C@H](CCCCNC(=O)c2ccc(CNC34CNCCNCC(N)(CNCCNC3)CNCCNC4)cc2)NC(=O)[C@@H](Cc2ccc(O)cc2)NC(=O)[C@H](CC(=O)O)NC(=O)CNC1=O [copper-64 labelled] | – | ex vivo biodistribution | male athymic nude mouse, PC-3 tumour, liver | 7.4 MBq, 48 h | – | tissue uptake | 1.7 ± 0.26 %ID/g
C[C@H]1COCCN1c1nc(NCc2cccnc2C(F)(F)F)c2cccnc2n1 | – | – | SCID BALB/c mice | oral, 90 mg/kg | – | AUC(0-24 h) | 132 µg·h/mL
CCN1[C@@H](C(=O)NC23CCC(C(=O)O)(CC2)CC3)[C@H](c2cccc(Cl)c2F)[C@]2(C(=O)Nc3cc(Cl)ccc32)C12CCCCC2 | – | – | advanced solid tumour patients | oral, dose not given | – | abdominal pain | 4.8%

Some of these lines once more:
Compound | tested on | test | test system | conditions | scale | endpoint | result
CC(C)C[C@H](NC(=O)C[C@H](O)[C@H](CC(C)C)NC(=O)[C@H](Cc1c[nH]cn1)NC(=O)CNC(=O)[C@@H](NC(=O)[C@H](C)NC(=O)[C@H](Cc1c[nH]c2ccccc12)NC(=O)[C@H](CCC(N)=O)NC(=O)[C@@H](Cc1ccccc1)NC(=O)CCNC(=O)CCSc1nnc(NCCC(=O)NCCC(=O)NCCCC[C@H](NC(=O)N[C@@H](CCC(=O)O)C(=O)O)C(=O)O)c2c1CCC1C(CC2)C1COC(=O)NCCNC(=O)CC[C@H](C(=O)O)N1CCN(CC(=O)O)CCN(CC(=O)O)CC1)C(C)C)C(N)=O (stereo partly drawn) [gallium-68 labelled] | – | – | athymic NMRI nude mouse, intestine | intravenous, dose not given, 2 h, with: bombesin 480 nmol (GRPR blocking) | – | tissue uptake | 0.37 %ID/g
CC(C)C[C@@H]1NC(=O)[C@H](CC(C)C)NC(=O)[C@H](Cc2c[nH]c3ccccc23)NC(=O)[C@H](CO)NC(=O)[C@H](Cc2c[nH]c3ccccc23)NC(=O)[C@@H]2CCCN2C(=O)[C@H](CC(C)C)NC(=O)[C@H](Cc2c[nH]cn2)NC(=O)[C@@H]2CCCN2C(=O)[C@H](CC(N)=O)NC(=O)[C@H](C)NC(=O)[C@H](Cc2ccc(O)cc2)NC(=O)[C@H](CS)NC(=O)[C@H](CCCCNC(=O)CN2CCN(CC(=O)O)CCN(CC(=O)O)CCN(CC(=O)O)CC2)NC1=O [lutetium-177 labelled] | – | – | Balb/c mouse, female, 4T1 tumour, intestine | intravenous, 3.7 MBq, 24 h | – | tissue uptake | 1.71 %ID
CC[C@H](C)[C@H](NC(=O)[C@H](Cc1ccccc1)NC(=O)[C@H](CCC(=O)O)NC(=O)[C@H](CCCNC(=N)N)NC(=O)[C@H](C)NC(=O)[C@H](C)NC(=O)[C@H](CCC(N)=O)NC(=O)[C@H](CCC(=O)O)NC(=O)[C@H](CCC(=O)O)NC(=O)[C@H](CC(C)C)NC(=O)[C@H](Cc1ccc(O)cc1)NC(=O)[C@H](CO)NC(=O)[C@H](CO)NC(=O)[C@@H](NC(=O)[C@H](CC(=O)O)NC(=O)[C@H](CO)NC(=O)[C@@H](NC(=O)[C@H](Cc1ccccc1)NC(=O)[C@@H](NC(=O)CNC(=O)[C@H](CCC(=O)O)NC(=O)[C@H](C)NC(=O)CCc1cnc[nH]1)[C@@H](C)O)[C@@H](C)O)C(C)C)C(=O)N[C@@H](C)C(=O)N[C@@H](Cc1c[nH]c2ccccc12)C(=O)N[C@@H](CC(C)C)C(=O)N[C@H](C(=O)N[C@@H](CCCNC(=N)N)C(=O)NCC(=O)N[C@@H](CCCNC(=N)N)C(=O)N[C@@H](CCCCNC(=O)COCCOCCNC(=O)COCCOCCNC(=O)CC[C@H](NC(=O)CCCCCCCCCCCCCCCCC(=O)O)C(=O)O)C(=O)NCC(=O)NCC(=O)N[C@@H](CO)C(=O)N[C@@H](CCSC)C(=O)N[C@H](C(=O)N[C@@H](CCCCNc1c(NCCCCCN(O)C(=O)CCC(=O)NCCCCCN(O)C(=O)CCC(=O)NCCCCCN(O)C(C)=O)c(=O)c1=O)C(=O)O)C(C)C)C(C)C [zirconium-89 labelled] | – | ex vivo gamma counting | Sprague-Dawley rat, brain | intravenous, dose not given, 24 h | – | tissue uptake | 0.009 %ID/g
